{"data": "Experimental data from different studies", "GLP1R": "Glucagon-like peptide 1 receptor (GLP1R, Homo sapiens, UniProt P43220)", "Lysophospholipase-like protein 1": "Lysophospholipase-like protein 1 (Mus musculus, UniProt Q3UFF7)", "note": "Compare with care: the assays were run in different laboratories. Values joined by “and” are separate records of one study, mostly repeats; a detail may differ. Numbers after ± are the reported error.", "UniProt P43220, sequence (whole entry, looked up)": "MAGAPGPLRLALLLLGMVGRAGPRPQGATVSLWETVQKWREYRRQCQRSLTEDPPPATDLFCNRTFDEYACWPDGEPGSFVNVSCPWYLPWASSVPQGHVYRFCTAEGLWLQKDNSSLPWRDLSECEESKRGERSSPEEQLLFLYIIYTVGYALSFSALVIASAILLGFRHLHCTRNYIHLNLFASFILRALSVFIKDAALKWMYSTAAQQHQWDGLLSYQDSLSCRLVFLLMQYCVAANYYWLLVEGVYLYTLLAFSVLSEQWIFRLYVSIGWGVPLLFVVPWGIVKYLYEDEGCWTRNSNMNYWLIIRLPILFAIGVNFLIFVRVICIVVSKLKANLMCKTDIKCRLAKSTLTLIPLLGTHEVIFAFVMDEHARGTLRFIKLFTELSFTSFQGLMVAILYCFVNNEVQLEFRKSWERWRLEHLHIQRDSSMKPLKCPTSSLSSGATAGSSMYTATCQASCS", "UniProt Q3UFF7, sequence (whole entry, looked up)": "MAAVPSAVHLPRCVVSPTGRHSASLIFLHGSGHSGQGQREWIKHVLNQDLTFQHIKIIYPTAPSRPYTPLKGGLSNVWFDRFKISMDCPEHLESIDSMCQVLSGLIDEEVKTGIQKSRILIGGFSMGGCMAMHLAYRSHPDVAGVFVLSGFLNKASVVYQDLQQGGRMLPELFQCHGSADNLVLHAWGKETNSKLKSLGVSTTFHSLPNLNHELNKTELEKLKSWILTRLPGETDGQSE", "UniProt P04756, sequence (whole entry, looked up)": "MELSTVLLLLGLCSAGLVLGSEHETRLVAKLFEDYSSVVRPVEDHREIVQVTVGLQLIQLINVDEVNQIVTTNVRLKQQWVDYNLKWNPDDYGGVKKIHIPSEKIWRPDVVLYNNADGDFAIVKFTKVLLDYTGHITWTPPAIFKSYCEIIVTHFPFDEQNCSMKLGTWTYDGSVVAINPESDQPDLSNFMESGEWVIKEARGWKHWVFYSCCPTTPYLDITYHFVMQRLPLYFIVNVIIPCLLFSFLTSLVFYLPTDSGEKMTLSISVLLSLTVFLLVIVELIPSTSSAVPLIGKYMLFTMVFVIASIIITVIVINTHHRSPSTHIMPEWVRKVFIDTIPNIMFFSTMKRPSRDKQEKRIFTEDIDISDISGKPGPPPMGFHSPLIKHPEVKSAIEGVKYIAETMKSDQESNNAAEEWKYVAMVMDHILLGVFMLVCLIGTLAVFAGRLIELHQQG", "UniProt P17706, sequence (whole entry, looked up)": "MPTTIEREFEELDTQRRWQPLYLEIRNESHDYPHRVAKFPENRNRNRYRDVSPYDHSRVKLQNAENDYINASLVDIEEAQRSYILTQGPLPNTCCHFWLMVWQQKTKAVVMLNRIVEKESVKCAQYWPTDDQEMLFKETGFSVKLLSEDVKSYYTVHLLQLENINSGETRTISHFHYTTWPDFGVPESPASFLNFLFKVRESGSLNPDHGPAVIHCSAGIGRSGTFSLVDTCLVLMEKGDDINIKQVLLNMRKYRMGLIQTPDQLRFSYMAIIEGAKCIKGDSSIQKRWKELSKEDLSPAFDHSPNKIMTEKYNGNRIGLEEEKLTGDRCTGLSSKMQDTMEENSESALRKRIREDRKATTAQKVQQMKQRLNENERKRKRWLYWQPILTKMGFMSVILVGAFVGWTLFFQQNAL", "UniProt Q8TDS7, sequence (whole entry, looked up)": "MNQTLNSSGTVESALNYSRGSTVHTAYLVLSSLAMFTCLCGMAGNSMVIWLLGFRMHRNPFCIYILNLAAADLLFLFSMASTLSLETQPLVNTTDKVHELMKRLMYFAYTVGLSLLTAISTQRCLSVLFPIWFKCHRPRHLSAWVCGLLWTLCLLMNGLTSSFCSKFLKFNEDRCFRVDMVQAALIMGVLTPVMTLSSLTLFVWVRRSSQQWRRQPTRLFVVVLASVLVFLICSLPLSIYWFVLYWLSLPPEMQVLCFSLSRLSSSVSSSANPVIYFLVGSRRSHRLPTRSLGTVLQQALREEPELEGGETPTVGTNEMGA", "UniProt O75762, sequence (whole entry, unmodified, looked up)": "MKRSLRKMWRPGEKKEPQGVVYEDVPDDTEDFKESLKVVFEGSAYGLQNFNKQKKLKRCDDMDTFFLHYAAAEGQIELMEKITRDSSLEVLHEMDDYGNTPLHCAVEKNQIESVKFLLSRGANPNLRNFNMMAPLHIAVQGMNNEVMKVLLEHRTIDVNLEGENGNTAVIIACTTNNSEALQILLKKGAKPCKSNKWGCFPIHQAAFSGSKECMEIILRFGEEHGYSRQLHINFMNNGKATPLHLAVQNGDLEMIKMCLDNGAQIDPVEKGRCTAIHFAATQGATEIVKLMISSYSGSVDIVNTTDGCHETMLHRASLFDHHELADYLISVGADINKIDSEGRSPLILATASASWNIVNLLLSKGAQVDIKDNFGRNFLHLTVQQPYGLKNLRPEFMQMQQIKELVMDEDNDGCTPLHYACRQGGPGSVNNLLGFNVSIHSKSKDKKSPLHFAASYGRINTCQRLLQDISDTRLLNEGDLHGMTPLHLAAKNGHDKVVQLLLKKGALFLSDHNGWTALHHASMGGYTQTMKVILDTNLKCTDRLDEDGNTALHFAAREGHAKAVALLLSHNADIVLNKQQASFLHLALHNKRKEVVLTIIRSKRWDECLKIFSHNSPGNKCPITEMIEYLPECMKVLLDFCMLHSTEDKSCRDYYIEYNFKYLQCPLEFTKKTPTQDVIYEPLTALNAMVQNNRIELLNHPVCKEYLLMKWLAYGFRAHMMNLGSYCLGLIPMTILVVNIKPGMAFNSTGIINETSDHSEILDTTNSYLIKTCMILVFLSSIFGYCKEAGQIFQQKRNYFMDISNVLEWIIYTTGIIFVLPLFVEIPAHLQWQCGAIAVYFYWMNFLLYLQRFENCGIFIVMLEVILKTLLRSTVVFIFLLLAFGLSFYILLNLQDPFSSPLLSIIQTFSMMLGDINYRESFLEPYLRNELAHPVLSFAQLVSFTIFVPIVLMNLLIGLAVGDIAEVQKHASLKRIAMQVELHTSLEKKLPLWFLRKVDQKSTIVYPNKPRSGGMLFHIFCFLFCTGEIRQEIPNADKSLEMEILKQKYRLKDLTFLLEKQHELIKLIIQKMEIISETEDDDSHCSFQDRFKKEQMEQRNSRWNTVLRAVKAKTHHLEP", "UniProt P02716, sequence (whole entry, looked up)": "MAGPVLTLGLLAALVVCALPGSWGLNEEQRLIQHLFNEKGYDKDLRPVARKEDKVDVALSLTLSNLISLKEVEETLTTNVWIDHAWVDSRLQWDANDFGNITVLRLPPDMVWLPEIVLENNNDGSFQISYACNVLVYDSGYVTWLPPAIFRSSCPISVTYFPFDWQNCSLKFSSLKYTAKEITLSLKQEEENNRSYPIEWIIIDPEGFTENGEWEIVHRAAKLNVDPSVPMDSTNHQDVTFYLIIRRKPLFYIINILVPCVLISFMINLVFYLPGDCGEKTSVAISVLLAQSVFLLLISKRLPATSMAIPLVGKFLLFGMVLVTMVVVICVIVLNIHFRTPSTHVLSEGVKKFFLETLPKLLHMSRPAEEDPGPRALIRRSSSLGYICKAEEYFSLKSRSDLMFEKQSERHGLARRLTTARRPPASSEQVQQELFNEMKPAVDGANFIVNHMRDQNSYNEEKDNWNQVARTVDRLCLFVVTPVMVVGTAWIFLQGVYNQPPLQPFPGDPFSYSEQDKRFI", "UniProt Q92847, sequence (whole entry, unmodified, looked up)": "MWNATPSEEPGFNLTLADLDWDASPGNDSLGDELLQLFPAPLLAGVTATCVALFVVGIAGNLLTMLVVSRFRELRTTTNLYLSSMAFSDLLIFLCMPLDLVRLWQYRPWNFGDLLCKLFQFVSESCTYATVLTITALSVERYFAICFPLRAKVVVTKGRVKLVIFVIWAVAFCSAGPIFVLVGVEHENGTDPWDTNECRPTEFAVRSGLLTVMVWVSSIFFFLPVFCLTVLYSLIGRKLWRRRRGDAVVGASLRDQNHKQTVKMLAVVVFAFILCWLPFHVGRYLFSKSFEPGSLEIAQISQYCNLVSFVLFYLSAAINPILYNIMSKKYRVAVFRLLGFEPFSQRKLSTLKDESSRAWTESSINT", "UniProt P46089, sequence (whole entry, unmodified, looked up)": "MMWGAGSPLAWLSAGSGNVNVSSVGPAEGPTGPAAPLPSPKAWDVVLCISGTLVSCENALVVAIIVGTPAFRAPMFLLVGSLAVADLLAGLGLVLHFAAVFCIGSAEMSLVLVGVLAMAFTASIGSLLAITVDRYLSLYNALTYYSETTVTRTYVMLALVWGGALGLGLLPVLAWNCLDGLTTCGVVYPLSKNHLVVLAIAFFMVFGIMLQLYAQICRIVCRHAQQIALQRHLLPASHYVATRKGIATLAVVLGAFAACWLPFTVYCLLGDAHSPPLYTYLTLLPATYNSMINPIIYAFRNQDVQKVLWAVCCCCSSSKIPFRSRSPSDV", "UniProt P20782, sequence (whole entry, looked up)": "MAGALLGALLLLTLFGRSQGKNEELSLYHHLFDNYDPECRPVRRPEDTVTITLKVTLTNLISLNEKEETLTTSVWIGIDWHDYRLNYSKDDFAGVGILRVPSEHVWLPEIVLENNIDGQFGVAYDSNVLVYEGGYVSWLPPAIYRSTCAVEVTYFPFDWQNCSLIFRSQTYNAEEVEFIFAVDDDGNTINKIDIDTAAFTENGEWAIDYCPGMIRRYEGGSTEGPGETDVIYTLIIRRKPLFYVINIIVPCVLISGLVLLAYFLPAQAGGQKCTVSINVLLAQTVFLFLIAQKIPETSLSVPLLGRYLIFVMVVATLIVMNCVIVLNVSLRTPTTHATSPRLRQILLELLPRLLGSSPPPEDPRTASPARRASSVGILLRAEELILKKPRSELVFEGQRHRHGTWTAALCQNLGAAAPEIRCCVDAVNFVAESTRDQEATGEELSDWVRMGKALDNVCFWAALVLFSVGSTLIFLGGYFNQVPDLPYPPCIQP", "UniProt Q9JJ74, sequence (whole entry, looked up)": "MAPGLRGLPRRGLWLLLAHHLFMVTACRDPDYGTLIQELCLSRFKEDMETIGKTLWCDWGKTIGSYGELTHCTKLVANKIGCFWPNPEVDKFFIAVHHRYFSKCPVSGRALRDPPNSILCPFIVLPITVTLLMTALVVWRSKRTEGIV"}
{"SMILES": "Cn1c(=O)n(C2CCC(=O)NC2=O)c2ccc(C3CCN(CC(=O)Nc4cccc(CS(=O)(=O)N5CC[C@H](Nc6cccc(-c7sc(C(=O)O)c(OCC(=O)O)c7Cl)c6)CC5(C)C)c4)CC3)cc21 (stereo partly shown)", "target": "PTPN2 (Homo sapiens, UniProt P17706)", "test": "enzyme activity, inhibitor, DiFMUP phosphatase", "EC50": "0.015 µM"}
{"SMILES": "CC[C@H](C)[C@H](NC(=O)[C@H](Cc1ccccc1)NC(=O)[C@H](CCC(=O)O)NC(=O)[C@H](CCCCN)NC(=O)[C@H](C)NC(=O)[C@H](C)NC(=O)[C@H](CCC(N)=O)NC(=O)CNC(=O)[C@H](CCC(=O)O)NC(=O)[C@H](CC(C)C)NC(=O)[C@H](Cc1ccc(O)cc1)NC(=O)[C@H](CO)NC(=O)[C@H](CO)NC(=O)[C@@H](NC(=O)[C@H](CC(=O)O)NC(=O)[C@H](CO)NC(=O)[C@@H](NC(=O)[C@H](Cc1ccccc1)NC(=O)[C@@H](NC(=O)CNC(=O)[C@H](CCC(=O)O)NC(=O)[C@H](C)NC(=O)[C@H](Cc1c[nH]cn1)NCC(C)C)[C@@H](C)O)[C@@H](C)O)C(C)C)C(=O)N[C@@H](C)C(=O)N[C@@H](Cc1c[nH]c2ccccc12)C(=O)N[C@@H](CC(C)C)C(=O)N[C@H](C(=O)N[C@@H](CCCCN)C(=O)NCC(=O)N[C@@H](CCCNC(=N)N)C(N)=O)C(C)C", "target": "GLP1R", "test": "reporter gene, agonist, luciferase", "EC50": "3.98e-06 µM"}
{"SMILES": "Nc1nc(NCc2ccc(Cl)cc2)nn1S(=O)(=O)c1ccc2c(c1)CCO2", "target": "Lysophospholipase-like protein 1", "test": "enzyme activity, activator, gel-based ABPP", "EC50": "> 20 µM"}
{"SMILES": "CC(C)Oc1cc(Cl)ccc1CNc1cc(-c2ccccc2)nc2ncnn12", "target": "GPR3 (Homo sapiens, UniProt P46089, V196W)", "test": "cAMP level, agonist, cAMP GloSensor", "conditions": "V196W mutant", "EC50": "3.34 µM"}
{"SMILES": "O=C(Cc1ccc(OCc2ccccc2)cc1)NC1(C(=O)O)CCN(C(=O)c2ccc(-c3cccc(Cl)c3)cc2)CC1", "target": "Probable G-protein coupled receptor 174 (Homo sapiens, UniProt Q9BXC1)", "test": "TGF-alpha shedding, agonist", "EC50": "> 10 µM"}
{"SMILES": "CC(C)(c1cccc2ccccc12)n1cc(CNc2ccc(C(=O)NCCC(=O)O)cc2)nn1", "target": "GLP1R", "test": "agonist", "system": "human cells", "EC50": "1.26 µM"}
{"SMILES": "CC1CCc2nccnc21 (stereo not shown)", "target": "uncharacterized protein (Bos taurus, UniProt E1BM68)", "test": "cAMP level, agonist, cAMP luminescence", "system": "HEK293 cells", "EC50": "1070 ± 98.9 µM"}
{"SMILES": "CC[C@H](C)[C@H](NC(=O)[C@H](Cc1ccccc1)NC(=O)[C@H](CCC(=O)O)NC(=O)[C@H](CCCCN)NC(=O)[C@H](C)NC(=O)[C@H](C)NC(=O)[C@H](CCC(N)=O)NC(=O)CNC(=O)[C@H](CCC(=O)O)NC(=O)[C@H](CC(C)C)NC(=O)[C@H](Cc1ccc(O)cc1)NC(=O)[C@H](CO)NC(=O)[C@H](CO)NC(=O)[C@@H](NC(=O)[C@H](CC(=O)O)NC(=O)[C@H](CO)NC(=O)[C@@H](NC(=O)[C@H](Cc1ccccc1)NC(=O)[C@@H](NC(=O)CNC(=O)[C@H](CCC(=O)O)NC(=O)[C@H](C)NC(=O)[C@H](Cc1c[nH]cn1)NCc1c[nH]cn1)[C@@H](C)O)[C@@H](C)O)C(C)C)C(=O)N[C@@H](C)C(=O)N[C@@H](Cc1c[nH]c2ccccc12)C(=O)N[C@@H](CC(C)C)C(=O)N[C@H](C(=O)N[C@@H](CCCCN)C(=O)NCC(=O)N[C@@H](CCCNC(=N)N)C(N)=O)C(C)C", "target": "GLP1R", "test": "reporter gene, agonist, luciferase", "EC50": "2.51e-06 µM and 4.7e-06 µM"}
{"SMILES": "CC(C)C[C@H](NC(=O)CNC(=O)[C@H](CCC(N)=O)NC(=O)[C@H](CC(C)C)NC(=O)[C@H](CC(C)C)NC(=O)[C@H](CCCNC(=N)N)NC(=O)[C@H](CCC(N)=O)NC(=O)[C@H](CC(C)C)NC(=O)[C@H](CCCNC(=N)N)NC(=O)[C@H](C)NC(=O)CNC(=O)[C@H](CCC(=O)O)NC(=O)[C@H](CCCNC(=N)N)NC(=O)[C@H](CC(C)C)NC(=O)[C@H](CCCNC(=N)N)NC(=O)[C@H](CO)NC(=O)[C@H](CC(C)C)NC(=O)[C@H](CCC(=O)O)NC(=O)[C@H](CO)NC(=O)[C@@H](NC(=O)[C@H](Cc1ccccc1)NC(=O)[C@@H](NC(=O)CNC(=O)[C@H](CC(=O)O)NC(=O)[C@H](CO)NC(=O)[C@@H](N)Cc1c[nH]cn1)[C@@H](C)O)[C@@H](C)O)C(=O)N[C@H](C(N)=O)C(C)C", "target": "GLP1R", "test": "cAMP, agonist", "EC50": "2.3 µM"}
{"SMILES": "CNc1ncnc2c1ncn2C1OC(CO)C(O)C1O (stereo not shown)", "target": "ADORA3 (Homo sapiens, UniProt P0DMS8, I253M)", "test": "G protein activation, agonist", "EC50": "0.047 µM"}
{"SMILES": "Cc1[nH]c2c(Cl)cc(Cl)cc2c1CCn1cc(CNc2ccc(C(=O)NCCC(=O)O)cc2)nn1", "target": "GLP1R", "test": "agonist", "system": "human cells", "EC50": "0.617 µM"}
{"SMILES": "CC(C)C[C@H](NC(=O)[C@H](CCCN)NC(=O)CNC(=O)[C@@H](NC(=O)[C@H](C)NC(=O)[C@@H]1CSCSC[C@H](NC(=O)CC[C@H](N)C(=O)O)C(=O)N[C@@H](CC(N)=O)C(=O)N[C@@H]([C@@H](C)O)C(=O)N[C@@H](C)C(=O)N[C@@H]([C@@H](C)O)C(=O)N1)[C@@H](C)O)C(=O)N[C@@H](C)C(=O)N[C@@H](CCC(=O)O)C(=O)N[C@@](C)(Cc1ccccc1)C(=O)N[C@@H](CC(C)C)C(=O)N[C@H](C(=O)N[C@@H](CCCNC(=N)N)C(=O)N[C@@H](CO)C(=O)N[C@@H](CO)C(=O)N[C@@H](CC(N)=O)C(=O)N(C)[C@@H](CC(N)=O)C(=O)N[C@@H](Cc1ccccc1)C(=O)NCC(=O)N1CCC[C@H]1C(=O)N[C@@H](CCCCNC(=O)CC[C@H](NC(=O)CC[C@H](NC(=O)CCCCCCCCCCCCCCCCCCC(=O)O)C(=O)O)C(=O)O)C(=O)N[C@@H](CC(C)C)C(=O)N1CCC[C@H]1C(=O)N1CCC[C@H]1C(=O)N[C@H](C(=O)N[C@@H](CCC(=O)O)C(=O)N[C@H](C(=O)NCC(=O)N[C@@H](CO)C(=O)N[C@@H](CC(N)=O)C(=O)N[C@H](C(=O)N[C@@H](Cc1ccc(O)cc1)C(N)=O)[C@@H](C)O)C(C)C)[C@@H](C)O)C(C)C", "target": "Calcr/Ramp1 (Rattus norvegicus, UniProt P32214+Q9JJ74)", "test": "cAMP accumulation, agonist, HTRF", "system": "UMUC3 cells", "conditions": "30 min, 37 °C, 0.1% casein, no albumin", "EC50": "5.4e-06 µM"}
{"SMILES": "COc1ccc(C(=O)c2c(C(=O)NCCCN(C)C)oc3ccc(Cl)cc3c2=O)cc1OC", "target": "GHSR (Homo sapiens, UniProt Q92847, A204E)", "test": "Gαq dissociation, TRUPATH BRET", "system": "HEK293T", "EC50": "1.17 µM"}
{"SMILES": "CSCC[C@H](NC(=O)[C@H](CC(C)C)NC(=O)CNC(=O)[C@H](Cc1ccccc1)NC(=O)[C@H](Cc1ccccc1)NC(=O)[C@@H](N)CCC(N)=O)C(N)=O", "target": "TACR1 (Homo sapiens, UniProt P25103)", "test": "cAMP, agonist, BRET", "EC50": "2 µM"}
{"SMILES": "O=C(NC[C@@H](Cc1ccc(F)cc1)N1CCC(O)(C(F)(F)F)CC1)C1(c2ccc(Cl)cc2)CCCC1", "target": "TRPA1 (Homo sapiens, UniProt O75762, M912A)", "EC50": "0.18 µM"}
{"SMILES": "COc1ccc(C2(C(=O)N3CCC(Nc4nc5ccccc5c(=O)[nH]4)CC3)CC2)cc1", "target": "MRGPRD, part with Gi1 (Homo sapiens, UniProt Q8TDS7)", "test": "Gi1 dissociation, agonist, BRET2", "EC50": "0.0282 µM"}
{"SMILES": "CCN[C@@H](Cc1c[nH]cn1)C(=O)N[C@@H](C)C(=O)N[C@@H](CCC(=O)O)C(=O)NCC(=O)N[C@H](C(=O)N[C@@H](Cc1ccccc1)C(=O)N[C@H](C(=O)N[C@@H](CO)C(=O)N[C@@H](CC(=O)O)C(=O)N[C@H](C(=O)N[C@@H](CO)C(=O)N[C@@H](CO)C(=O)N[C@@H](Cc1ccc(O)cc1)C(=O)N[C@@H](CC(C)C)C(=O)N[C@@H](CCC(=O)O)C(=O)NCC(=O)N[C@@H](CCC(N)=O)C(=O)N[C@@H](C)C(=O)N[C@@H](C)C(=O)N[C@@H](CCCCN)C(=O)N[C@@H](CCC(=O)O)C(=O)N[C@@H](Cc1ccccc1)C(=O)N[C@H](C(=O)N[C@@H](C)C(=O)N[C@@H](Cc1c[nH]c2ccccc12)C(=O)N[C@@H](CC(C)C)C(=O)N[C@H](C(=O)N[C@@H](CCCCN)C(=O)NCC(=O)N[C@@H](CCCNC(=N)N)C(N)=O)C(C)C)[C@@H](C)CC)C(C)C)[C@@H](C)O)[C@@H](C)O", "target": "GLP1R", "test": "reporter gene, agonist, luciferase", "EC50": "6.31e-06 µM"}
{"SMILES": "CC[C@H](C)[C@H](NC(=O)[C@H](Cc1ccccc1)NC(=O)[C@H](CCC(=O)O)NC(=O)[C@H](CCCCN)NC(=O)[C@H](C)NC(=O)[C@H](C)NC(=O)[C@H](CCC(N)=O)NC(=O)[C@H](CCC(=O)O)NC(=O)[C@H](CC(=O)O)NC(=O)[C@H](CC(C)C)NC(=O)[C@H](Cc1ccc(O)cc1)NC(=O)[C@H](CCCCN)NC(=O)[C@H](CO)NC(=O)[C@H](Cc1ccc(O)cc1)NC(=O)[C@H](CC(=O)O)NC(=O)[C@H](CO)NC(=O)[C@@H](NC(=O)[C@H](Cc1ccccc1)NC(=O)[C@@H](NC(=O)CNC(=O)[C@H](CCC(N)=O)NC(=O)[C@H](CO)NC(=O)[C@@H](N)Cc1cnc[nH]1)[C@@H](C)O)[C@@H](C)O)C(=O)N[C@@H](C)C(=O)N[C@@H](Cc1c[nH]c2ccccc12)C(=O)N[C@@H](CC(C)C)C(=O)N[C@@H](CCSC)C(=O)N[C@@H](CC(N)=O)C(=O)N[C@H](C(N)=O)[C@@H](C)O", "target": "GLP1R", "test": "cAMP, agonist, TR-FRET", "EC50": "8.91e-06 µM"}
{"SMILES": "Nc1ncnc2c1ncn2[C@@H]1O[C@H](COP(=O)(O)OP(=O)(O)OC[C@H]2OC(O)[C@H](O)[C@@H]2O)[C@@H](O)[C@H]1OP(=O)(O)O (stereo partly shown)", "target": "TRPM2 (Nematostella vectensis, UniProt A7T1N0, R160C)", "test": "agonist", "EC50": "0.094 ± 0.001 µM"}
{"SMILES": "Nc1nc(NCc2ccc(Cl)cc2)nn1S(=O)(=O)c1cccc2cccnc12", "target": "Lysophospholipase-like protein 1", "test": "enzyme activity, activator, gel-based ABPP", "EC50": "> 20 µM"}
{"SMILES": "CC(C)(C)C(c1ccccc1)n1cc(CNc2ccc(C(=O)NCCC(=O)O)cc2)nn1 (stereo not shown)", "target": "GLP1R", "test": "agonist", "system": "human cells", "EC50": "4.68 µM"}
{"SMILES": "C[N+]1(C)CCCC1", "target": "Chrnd/Chrna1/Chrne (Mus musculus, UniProt P02716+P04756+P20782)", "test": "channel open probability, agonist", "system": "mouse", "conditions": "wild type", "EC50": "11000 µM"}
{"note": "Repeated from above:"}
{"SMILES": "Nc1nc(NCc2ccc(Cl)cc2)nn1S(=O)(=O)c1ccc2c(c1)CCO2", "target": "Lysophospholipase-like protein 1", "test": "enzyme activity, activator, gel-based ABPP", "EC50": "> 20 µM"}
{"SMILES": "CNc1ncnc2c1ncn2C1OC(CO)C(O)C1O (stereo not shown)", "target": "ADORA3 (Homo sapiens, UniProt P0DMS8, I253M)", "test": "G protein activation, agonist", "EC50": "0.047 µM"}
{"SMILES": "CC[C@H](C)[C@H](NC(=O)[C@H](Cc1ccccc1)NC(=O)[C@H](CCC(=O)O)NC(=O)[C@H](CCCCN)NC(=O)[C@H](C)NC(=O)[C@H](C)NC(=O)[C@H](CCC(N)=O)NC(=O)CNC(=O)[C@H](CCC(=O)O)NC(=O)[C@H](CC(C)C)NC(=O)[C@H](Cc1ccc(O)cc1)NC(=O)[C@H](CO)NC(=O)[C@H](CO)NC(=O)[C@@H](NC(=O)[C@H](CC(=O)O)NC(=O)[C@H](CO)NC(=O)[C@@H](NC(=O)[C@H](Cc1ccccc1)NC(=O)[C@@H](NC(=O)CNC(=O)[C@H](CCC(=O)O)NC(=O)[C@H](C)NC(=O)[C@H](Cc1c[nH]cn1)NCC(C)C)[C@@H](C)O)[C@@H](C)O)C(C)C)C(=O)N[C@@H](C)C(=O)N[C@@H](Cc1c[nH]c2ccccc12)C(=O)N[C@@H](CC(C)C)C(=O)N[C@H](C(=O)N[C@@H](CCCCN)C(=O)NCC(=O)N[C@@H](CCCNC(=N)N)C(N)=O)C(C)C", "target": "GLP1R", "test": "reporter gene, agonist, luciferase", "EC50": "3.98e-06 µM"}
